# Assay results of several laboratories.
# Protocols differ between the studies behind these lines.
SMILES,organism,assay,test system,setting,how to read,MIC
COCO[C@H]1[C@H](O)[C@@H](N)[C@@H](O[C@H]2[C@H](O[C@@H]3O[C@H](CO)[C@@H](O[C@H]4O[C@@H](CN)[C@@H](O)[C@H](O)[C@H]4N)[C@H]3O)[C@@H](O)[C@H](N)C[C@@H]2N)O[C@@H]1CO,Mycolicibacterium smegmatis,"microbial growth, broth dilution",,72 h,,16 µg/mL
CC1(C)[C@H](NC(=O)/C(=N\OCC(=O)N2CCC(C(=O)O)C2)c2nsc(N)n2)C(=O)N1OS(=O)(=O)O (stereo partly drawn),Enterobacter cloacae,agar dilution,"ATCC 43560, susceptible",,,2 µg/mL
COc1cccc(OC)c1C(=O)N[C@@H]1C(=O)N2[C@@H]1SC(C)(C)[C@@H]2C(=O)O,Salmonella enterica,"microbial growth, broth dilution",TYPHIMURIUM,,,> 128 µM
CC1C=CC=CC(C)C2C=CC3CC(C)(O)C(Cl)C(C)C3C2C(=O)C(Cl)(Cl)C(=O)C(C)C(=O)O1 (stereo not drawn),Staphylococcus aureus,,MRSA clinical isolate,OXA CLI ERY resistant,,0.05 µg/mL
C=CCO/N=C(\C(=O)N[C@@H]1C(=O)N(OS(=O)(=O)O)C1(C)C)c1csc(N)n1,Enterobacter cloacae,agar dilution,CDC 1000654,,,8 µg/mL
COc1cc(C(=O)O)ccc1NC(=O)c1ccc(NC(=O)c2ccc(NC(=O)[C@H](Cc3c[nH]nn3)NC(=O)c3ccc(NC(=O)/C(C)=C/c4ccc(O)cc4)cc3)cc2)c(OC)c1O,Enterococcus faecium,broth microdilution,ciprofloxacin-sensitive,,,4 µg/mL
CC[C@H](C)[C@@H]1NC(=O)[C@@H]([C@@H](C)O)NC(=O)CNC(=O)[C@H](CC(=O)O)NC(=O)CNC(=O)[C@H](CC(=O)O)NC(=O)CNC(=O)[C@H]2CCCCN2C(=O)[C@@H](NC(=O)[C@H](CC(=O)O)NC(=O)/C=C/CCCCCCCCCC(C)C)CNC(=O)[C@@H]2CCCN2C1=O,Enterococcus,broth microdilution,"VRE 155, Mueller-Hinton broth, Mg2+ 10 mg/L","16 h, added: Ca2+ 5 mM",,4 µg/mL
C=C(NC(=O)c1csc(-c2nc3c(cc2O)-c2nc(cs2)C(=O)NC(C(C)O)C(=O)NC(=C(C)OC)c2nc(cs2)C(=O)NC2c4nc(cs4)C(=O)NC(COC(=O)c4c5c6c(cccc6n4O)COC(=O)C(OC4CC(C)(O)C(N(C)C)C(C)O4)C2OC5)c2nc-3cs2)n1)C(N)=O (stereo not drawn),Staphylococcus aureus,,ATCC 43300 MRSA,,,0.0156 µg/mL
Cc1c(CN(C)C(=O)/C=C/c2cnc3c(c2)CC(N)C(=O)N3)oc2ccccc12 (stereo not drawn),Enterobacter cloacae,broth microdilution,BAA-2468,,,8 µg/mL
CCCCCCCCCCCCCCCCCCn1cc(CN(CCC(=O)NCCN(CCC(=O)NCCN(CCC(=O)NCCN(C)C)CCC(=O)NCCN(C)C)CCC(=O)NCCN(CCC(=O)NCCN(C)C)CCC(=O)NCCN(C)C)CCC(=O)NCCN(CCC(=O)NCCN(CCC(=O)NCCN(C)C)CCC(=O)NCCN(C)C)CCC(=O)NCCN(CCC(=O)NCCN(C)C)CCC(=O)NCCN(C)C)nn1,Enterobacter cloacae,broth microdilution,"111, LB broth",18 h,,> 96 µg/mL
CC1(C)C(NC(=O)C(=NOCC(=O)N2CC3CCCC3C2C(=O)O)c2csc(N)n2)C(=O)N1OS(=O)(=O)O (stereo not drawn),Enterobacter cloacae,agar dilution,CDC 1000654,,,> 64 µg/mL
CCOc1c(NC(=O)c2ccc(NC(=O)c3ccc(NC(=O)[C@H](Cc4c[nH]nn4)NC(=O)c4ccc(NC(=O)/C(C)=C/c5ccc(O)cc5)cc4)cc3)c(OCC)c2O)ccc(C(=O)O)c1O,Enterococcus faecium,broth microdilution,ciprofloxacin-sensitive,,,0.25 µg/mL
C=CCO/N=C(\C(=O)N[C@@H]1C(=O)N(OS(=O)(=O)O)C1(C)C)c1nsc(N)n1,Enterobacter cloacae,agar dilution,CDC 1000654,,,1 µg/mL
COc1c(NC(=O)c2ccc(NC(=O)c3ccc(NC(=O)[C@H](Cc4c[nH]nn4)NC(=O)c4ccc(NC(=O)/C(C)=C/c5ccc(O)cc5)cc4)cc3)c(OC)c2O)ccc(C(=O)O)c1O,Enterococcus faecium,broth microdilution,ciprofloxacin-sensitive,,,0.25 µg/mL
CC1(C)C(NC(=O)C(=NOC2(C(=O)O)CCC2)c2csc(N)n2)C(=O)N1OS(=O)(=O)O (stereo not drawn),Enterobacter cloacae,agar dilution,"ATCC 43560, susceptible",,,0.125 µg/mL
CN[C@H](CC(C)C)C(=O)N[C@H]1C(=O)N[C@@H](CC(N)=O)C(=O)N[C@H]2C(=O)N[C@H]3C(=O)N[C@H](C(=O)N[C@H](C(=O)O)c4cc(O)cc(O)c4-c4cc3ccc4O)[C@H](O)c3ccc(c(Cl)c3)Oc3cc2cc(c3O[C@@H]2O[C@H](CO)[C@@H](O)[C@H](O)[C@H]2O[C@H]2C[C@](C)(NCc3ccc(-c4ccc(Cl)cc4)cc3)[C@H](O)[C@H](C)O2)Oc2ccc(cc2Cl)[C@H]1O,Enterococcus faecium,,VanA VRE ATCC BAA-2317,no LTA,,2.5 µg/mL
COc1nc(C(=O)Nc2ccc(C(=O)O)c(O)c2OC)ccc1NC(=O)c1ccc(NC(=O)[C@H](Cc2c[nH]nn2)NC(=O)c2ccc(NC(=O)/C(C)=C/c3ccc(O)cc3)cc2)cc1,Enterococcus faecium,broth microdilution,ciprofloxacin-resistant,,,8 µg/mL
CC1(C)[C@H](NC(=O)/C(=N\OCc2cc(=O)c(O)cn2O)c2csc(N)n2)C(=O)N1OS(=O)(=O)O,Enterobacter cloacae,agar dilution,ATCC 43560 susceptible,,,0.06 µg/mL
CCOc1c(NC(=O)c2ccc(NC(=O)c3ccc(NC(=O)[C@H](Cc4c[nH]nn4)NC(=O)c4ccc(NC(=O)/C(C)=C/c5ccc(O)cc5)cc4)cc3)c(OC)c2O)ccc(C(=O)O)c1O,Enterococcus faecium,broth microdilution,ciprofloxacin-sensitive,,,0.063 µg/mL
CC(C)(O/N=C(\C(=O)N[C@@H]1C(=O)N(OS(=O)(=O)O)C1(C)C)c1nsc(N)n1)C(=O)O,Enterobacter cloacae,agar dilution,"ATCC 43560, susceptible",,,32 µg/mL
NC[C@@H]1O[C@H](O[C@H]2[C@@H](O)[C@H](O[C@@H]3[C@@H](O)[C@H](N)C[C@H](N)[C@H]3O[C@H]3O[C@H](CO)[C@@H](OCC(O)CO)[C@H](O)[C@H]3N)O[C@@H]2CO)[C@H](N)[C@@H](O)[C@@H]1O (stereo partly drawn),Mycolicibacterium smegmatis,"microbial growth, broth dilution",,72 h,,2 µg/mL
CC1(C)[C@H](NC(=O)/C(=N\OCc2c(Cl)cccc2Cl)c2nsc(N)n2)C(=O)N1OS(=O)(=O)O,Enterobacter cloacae,agar dilution,CDC 1000654,,,> 64 µg/mL
COc1c(NC(=O)c2ccc(NC(=O)c3ccc(NC(=O)[C@H](CC#N)NC(=O)c4ccc(NC(=O)/C(C)=C/c5ccc(O)cc5)cc4)cc3)c(OC)c2O)ccc(C(=O)O)c1O,Enterococcus faecium,broth microdilution,ciprofloxacin-sensitive,,,2 µg/mL
CO[C@H]1/C=C/O[C@@]2(C)Oc3c(C)c(O)c4c(c3C2=O)C2=NC3(CCN(CC(C)C)CC3)NC2=C(NC(=O)/C(C)=C\C=C\[C@H](C)[C@H](O)[C@@H](C)[C@@H](O)[C@@H](C)[C@H](OC(=O)c2ccccc2)[C@@H]1C)C4=O,Mycobacteroides abscessus,,clinical isolate Bamboo,,90% growth inhibition,0.065 µM

# Excerpt of the above:
SMILES,organism,assay,test system,setting,how to read,MIC
CC1C=CC=CC(C)C2C=CC3CC(C)(O)C(Cl)C(C)C3C2C(=O)C(Cl)(Cl)C(=O)C(C)C(=O)O1 (stereo not drawn),Staphylococcus aureus,,MRSA clinical isolate,OXA CLI ERY resistant,,0.05 µg/mL
COc1c(NC(=O)c2ccc(NC(=O)c3ccc(NC(=O)[C@H](CC#N)NC(=O)c4ccc(NC(=O)/C(C)=C/c5ccc(O)cc5)cc4)cc3)c(OC)c2O)ccc(C(=O)O)c1O,Enterococcus faecium,broth microdilution,ciprofloxacin-sensitive,,,2 µg/mL
COCO[C@H]1[C@H](O)[C@@H](N)[C@@H](O[C@H]2[C@H](O[C@@H]3O[C@H](CO)[C@@H](O[C@H]4O[C@@H](CN)[C@@H](O)[C@H](O)[C@H]4N)[C@H]3O)[C@@H](O)[C@H](N)C[C@@H]2N)O[C@@H]1CO,Mycolicibacterium smegmatis,"microbial growth, broth dilution",,72 h,,16 µg/mL
C=C(NC(=O)c1csc(-c2nc3c(cc2O)-c2nc(cs2)C(=O)NC(C(C)O)C(=O)NC(=C(C)OC)c2nc(cs2)C(=O)NC2c4nc(cs4)C(=O)NC(COC(=O)c4c5c6c(cccc6n4O)COC(=O)C(OC4CC(C)(O)C(N(C)C)C(C)O4)C2OC5)c2nc-3cs2)n1)C(N)=O (stereo not drawn),Staphylococcus aureus,,ATCC 43300 MRSA,,,0.0156 µg/mL
